# Experimental data collected from several papers.
# Each numbered part is a random draw from the data of one study; scales do not carry over between parts. Substitutions count along the parent as printed.

# Series 1 — technique: RNA Bind-n-Seq; molecule type: RNA; matrix: in vitro; concentration: 365 nM; baseline: no-protein control; direction: higher = stronger binding
# Target: RNA binding protein fox-1 homolog 2, RRM domain, GST-SBP tag (RBFOX2, Homo sapiens, UniProt O43251-10, residues 100-194)
# Setting: natural RNA segment, single round, ends assumed
# Construct (chain): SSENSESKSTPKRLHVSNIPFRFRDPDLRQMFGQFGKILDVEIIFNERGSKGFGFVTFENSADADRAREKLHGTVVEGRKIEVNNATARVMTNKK
Sequence,RBNS enrichment (R)
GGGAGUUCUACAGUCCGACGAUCCCUGGACAGCACAGAUCCAGUGUGUUGCUGGCACUUGAGGUGUAAUAAAUGGCCUGGGGUGCUGCCUCUUUCUCUUGUUGCUCUGGGGGUACUGGGGAGGAGGAGAGGUGUGGAAUUCUCGGGUGCCAA,0.551
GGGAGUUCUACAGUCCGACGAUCCCAUUUAAAUUUGUUCAUAGCCUACAUCACCAAGGUCUCUGUGUCAAACCUGUGGCCACUCUAUAUGCACUUUGUUUACUCUUUAUACAAAUAAAUAUACUAAAGACUUUUGGAAUUCUCGGGUGCCAA,0.456
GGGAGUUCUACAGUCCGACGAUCCCUUCUUGUUGCUGUUAGAAUAGUGCUAUAUAUCAGGUAUGUGACCAUUUAUUUCAGAAGGCUGAACAUAAGAGGUUUCUACUCAGCAAUACUUAGAUGUCUAACUGUUUUGGAAUUCUCGGGUGCCAA,0.416
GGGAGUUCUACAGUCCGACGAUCCUCAAGUAUUCUAGAAUCUGCUGGGACAUUGGGCUGUUUCUCAACUUAUGUGUCUACUUGGAGAGAAAAGAAUGUCUUUGAACAAAAUGGCUAACUUUCACAAAACUGUCUGGAAUUCUCGGGUGCCAA,0.564
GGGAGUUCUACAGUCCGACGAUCCACCAUUGAUUUUUCCAAAAUGUGUUGGAGAUUUGGCUGGACAGGUUACCAUCAGAGUGGAUGUACCAUUGAGUUAAAAACAAGAUAGAAAAACUGCCAAGUUGUUUGGCUGGAAUUCUCGGGUGCCAA,0.523
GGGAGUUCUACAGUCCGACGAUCACUAAUGAAACAUUUAGAAAAACCCAGCUGUACCCAUAAGUGUUUAAAAAGAUAAACGGAUUUGAGCCUCCCUGAUUUCAAUCAAGAGCCCUGUGUGUGGAAUUCCAGAUUGGAAUUCUCGGGUGCCAA,0.395
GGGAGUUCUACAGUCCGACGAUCUUAUUGUACUUCCAUUCAUACUCUGGGCACUUGUGUUGUAUUGUUCUGUUACAUACUUUUUUUAACCUGUUUUGUUUUAUCAUAUAUGCAUUAAAAGUAUUAUCUUUAUCUGGAAUUCUCGGGUGCCAA,1.03
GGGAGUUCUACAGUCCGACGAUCAAAUUGAGUCUGAAAGCCACAAGGACAGUCAACUCACAGCCAGCUCACAUUGCAGACACCAUUUUGGGCUCCCUGAUUAAAUGCAGAUCAGUUCUGCACACCUCCAGGGGUGGAAUUCUCGGGUGCCAA,0.283

# Series 2 — target: CCND3, cyclin fold, Cln2 fusion (human); technique: yeast growth competition, sequencing; matrix: yeast; setting: weak parent motif; baseline: not given; direction: higher = stronger binding
# Starting sequence: USP37 docking peptide (human); PSAKRSLGFLPQP
Variant,normalised enrichment score
Q12A,0.529
S2A,0.304
G8A,0.144
K4A,0.567
L10A,0.212
P1A,-0.000533

# Series 3 — technique: protein binding microarray; molecule type: double-stranded DNA, one strand shown; matrix: in vitro; concentration: not given; baseline: not given; direction: higher = stronger binding
# Target: Histone acetyltransferase KAT6A, winged helix 2, GST fusion (KAT6A, Homo sapiens, UniProt Q92794, residues 85-181)
# Setting: 8-mer, flanks averaged, mean of 2 arrays, mostly near background
# Target sequence (chain): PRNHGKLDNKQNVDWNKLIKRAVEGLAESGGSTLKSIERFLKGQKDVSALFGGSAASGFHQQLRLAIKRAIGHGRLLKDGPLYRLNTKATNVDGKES
Sequence,E-score
CAGCTTAG,0.0653
ACTAGTGA,-0.225
CACCCGGG,0.153
AGTCGCAA,-0.118
CTCACTGA,0.0532
ACTCAGGG,0.117
CCACTGTC,-0.125
ACGTATAT,-0.237
CTAGTGGC,0.052
CGATTCCA,0.113
CTCTAATC,-0.0106
CGGTGGAC,0.0918
AGTTTTTC,-0.0295
CACACACG,0.00257
CAAGGGGA,-0.0944
ACGAACGG,0.0898

# Series 4 — technique: protein-binding microarray; molecule type: double-stranded DNA, one strand shown; matrix: in vitro; concentration: not given; direction: higher = stronger binding
# Target: Protein C-ets-1 (ETS1, Homo sapiens, UniProt P14921, residues 1-441, full length assumed)
# Setting: k-mer, scored over probes, only values ≥0.25
# Residues (chain): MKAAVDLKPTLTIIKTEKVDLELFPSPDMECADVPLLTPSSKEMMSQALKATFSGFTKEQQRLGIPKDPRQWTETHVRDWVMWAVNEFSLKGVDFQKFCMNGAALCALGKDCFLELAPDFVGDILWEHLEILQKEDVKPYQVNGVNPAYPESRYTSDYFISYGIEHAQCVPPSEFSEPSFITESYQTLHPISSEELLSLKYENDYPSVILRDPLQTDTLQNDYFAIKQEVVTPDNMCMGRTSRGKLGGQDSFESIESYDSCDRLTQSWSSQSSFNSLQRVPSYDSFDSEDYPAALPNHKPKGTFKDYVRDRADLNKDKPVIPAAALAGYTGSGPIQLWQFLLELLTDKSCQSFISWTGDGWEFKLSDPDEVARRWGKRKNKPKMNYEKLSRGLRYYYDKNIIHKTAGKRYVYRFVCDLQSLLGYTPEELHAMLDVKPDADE
Sequence,E-score
CCGGAACG,0.424
ACGACGGA,0.307
ATCCGCTA,0.329
ACCAGGAT,0.279
AAGCGGAT,0.431
AACTTCCA,0.323
ATTATCCG,0.295
CTTCCCCC,0.389
GGGAAGGA,0.351
ATCCTGCG,0.379
CTTCATCC,0.266
AAAGCGGA,0.356
CACACCGG,0.366
TCCAGGAA,0.418
CGGGGAAA,0.293
CCATCCGG,0.475
CCGGACGG,0.431
GATGTGGC,0.302
CGTCATCC,0.289

# Repeated from above (series 3):
Sequence,E-score
ACTAGTGA,-0.225
CACCCGGG,0.153
AGTCGCAA,-0.118
CTCACTGA,0.0532
ACTCAGGG,0.117
CCACTGTC,-0.125
ACGTATAT,-0.237
CTAGTGGC,0.052
